Assay results gathered from unrelated publications.
Each numbered part is a random draw from the data of one study; scales do not carry over between parts.

Set 1
Target: PABPC1L2, full length, GST fusion (mouse, UniProt A0ABA7IW68)
Method: RNAcompete
Molecule type: RNA
Sample: in vitro
Concentration: 20 nM
Setting: 7-mer, probes averaged, single round
Baseline: mean of 7-mers
Reading: higher = stronger binding
Construct (chain): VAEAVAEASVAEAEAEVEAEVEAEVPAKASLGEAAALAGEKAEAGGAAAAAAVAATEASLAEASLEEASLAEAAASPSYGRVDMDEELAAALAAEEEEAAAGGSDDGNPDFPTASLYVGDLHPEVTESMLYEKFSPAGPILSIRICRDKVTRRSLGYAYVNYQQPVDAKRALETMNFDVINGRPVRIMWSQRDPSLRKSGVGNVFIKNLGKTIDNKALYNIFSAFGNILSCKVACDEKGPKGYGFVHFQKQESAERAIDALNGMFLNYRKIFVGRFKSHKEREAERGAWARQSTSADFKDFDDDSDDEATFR
| Sequence | 7-mer Z-score |
| --- | --- |
| ACUGAUC | -0.204 |
| CUCUAAG | -0.28 |
| AAAGCGG | 1.59 |
| CAGUAUC | -0.206 |
| ACCGCGA | -0.0772 |
| AUAGAGU | 0.0261 |
| UAGGGCG | 0.258 |
| GCGUGUU | -0.351 |
| GCGACAG | 0.135 |
| AGCCAUU | -0.182 |
| GUUUUCU | -0.36 |
| CAUUGGA | 0.162 |
| AUCUUCU | -0.324 |
| ACUAUAG | -0.101 |
| AUUAGAU | -0.219 |
| UCAGUGU | -0.191 |
| GUGGAAC | 0.0895 |
| AGACUGC | -0.162 |
| UAAGAAG | -0.00108 |
| UGUUGAA | -0.0953 |
| GUUGUUU | -0.478 |

Set 2
Target: Hepatocyte nuclear factor 3-alpha (Foxa1, Mus musculus, UniProt P35582, residues 1-468, full length assumed)
Chain of UniProt P35582 (whole entry, looked up): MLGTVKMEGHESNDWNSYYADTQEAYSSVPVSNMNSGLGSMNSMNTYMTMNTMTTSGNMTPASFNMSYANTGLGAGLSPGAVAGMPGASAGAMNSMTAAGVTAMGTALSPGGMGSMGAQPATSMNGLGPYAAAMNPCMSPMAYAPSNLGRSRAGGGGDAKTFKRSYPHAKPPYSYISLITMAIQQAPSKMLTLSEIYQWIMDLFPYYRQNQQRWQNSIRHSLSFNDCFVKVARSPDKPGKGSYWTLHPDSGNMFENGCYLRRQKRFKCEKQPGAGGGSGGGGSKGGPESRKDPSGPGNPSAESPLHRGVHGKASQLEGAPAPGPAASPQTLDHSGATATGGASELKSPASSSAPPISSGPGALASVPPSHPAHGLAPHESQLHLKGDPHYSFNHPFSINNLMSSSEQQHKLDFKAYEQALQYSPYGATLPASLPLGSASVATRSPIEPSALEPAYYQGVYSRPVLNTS
Method: EMSA with sequencing
Molecule type: double-stranded DNA, one strand shown
Sample: in vitro
Concentration: 10 and 20 nM
Setting: whole designed probe, mean of two concentrations, ends assumed
Baseline: negative control set to 0
Reading: higher = stronger binding
| Sequence | normalised bound fraction |
| --- | --- |
| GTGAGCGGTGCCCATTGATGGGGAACGCAATAGCAAAAGTAAGGCAGGGAAGTACAAATTCAATAGCAAACAAATAGTGGTATGGCCATGTCACAATACCCTGCGGCCATTTCAAGTGAAGATTACAAAGTTTGTAGGCAGACAGTCACCTCGAAATTACAAAGCTCCGACTGTGCGGGGCGCTGGGTTGGGCACGGAGCAGATAGGGCCAGAAGGCCATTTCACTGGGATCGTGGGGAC | 0.234 ratio |
| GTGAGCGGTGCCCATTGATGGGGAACATAAAGCTATTTCTCTGCTATTTGAAAATACAATAGAAGAAACTGAGCCTTTTAGACATTCGTCAGCCTCTTCTAATAAACCTTTGTACTATGTAAACATCAGGAAATTCAAAGCTCGGAGACTTTTCCTATTCTTTTCCTCTAGACCTGACAATCAAACACTTCCCCGCTTCAACACATCTCATTTTCTAGATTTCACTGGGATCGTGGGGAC | 0.447 ratio |
| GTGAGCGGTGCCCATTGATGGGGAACGGCATTCCTCCAGTGTACTTCATGGCTTGAATTCAAAATCATGTTCCAAGGTAAATAAATCTGCTCCATCTTGTTTATCCAAAGGGCAGTTTGGTGTTGACTTAGTTCTGCTCTTTTTTGGTAACTTATTCAAGAAAAGCAAAGAGCAGAAAATTCGTGGTGTTTTAATCCAGGGAGAAGGAGCGGGTGGAAGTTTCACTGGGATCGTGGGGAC | 0.351 ratio |
| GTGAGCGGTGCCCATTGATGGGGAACCATCAGCAGGCTTCCTCTGAGAAGTTTCCCATCGACGTATCCTCTTTCAAGGGCCTTCCAAGCATGGAGACATTTCCTCAGAGATAATAAGAGTAAACAGGGAACTAAGGCCTCCCAGACCTTGACAGCCTCTGCCTGAGTGCACAGATGCAGCTGGGCTGTGGCAGCTCCGACTCGCAGAGCCAGGCGCCGCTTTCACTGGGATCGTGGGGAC | 0.109 ratio |
| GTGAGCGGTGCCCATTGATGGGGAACATCTTCCCCCTCTTCCTTGCCCCACCAGCTCACCTTCCCGGGTTGTTTACTTTGAGGAAAATAAATAAAGCCGGCATTCGTTAACCCTCTTCTGGCGCAAACTGCCAGAGCAAACAGATGAATCATGGTCCTTTGGCGACGCCAGGCTCCGGGAGAGCAAAGCACCGTGTCAGGGCCATGATCCGGGGTGGCCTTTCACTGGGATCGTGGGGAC | 0.412 ratio |
| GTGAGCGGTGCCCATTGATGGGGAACAGGTGAATTGGCTGCTTCCATCCTGGCTTGGAACTTCAGACATAGAAGCCTTGGGACTCTGACTCATGCTTCTCAGGACTTTCTCCAGATTCAGCAAACAAGCATCTCTGTGGATCACGTGACCTTAGCCAGGGATGTTGGTGAAACTGTGTGTTGGTCTAGGTACCTAGCCCATGCTAGGTGCTCATCGAATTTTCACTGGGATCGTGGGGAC | 0.0585 ratio |

Set 3
Target: Fragile X messenger ribonucleoprotein 1, C-terminal low-complexity region (Fmr1, Mus musculus, UniProt P35922)
Method: RNA Bind-n-Seq
Molecule type: RNA
Sample: in vitro
Concentration: 200 nM
Setting: whole 134-nt RNA, ends assumed
With: 150 mM LiCl
Baseline: input library
Reading: higher = stronger binding
All molecules: 7-deaza-guanosine replaces G
| Sequence | log2 enrichment |
| --- | --- |
| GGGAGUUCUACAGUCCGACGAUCGGUAAACGCCCUGCAGAAGAUAUGGAAGAGGAACAAGCAUUUAAAAGAUCUAGAAACACUGAUGAGAUGGUUGAAUUACGCAUUCUGCUUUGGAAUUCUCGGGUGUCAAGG | 0.0291 |
| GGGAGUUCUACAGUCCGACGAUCCACAGACAACACGCACCCACACAGACACAGAGGGAAGGGGUUGGGAUGGGGACAGGGUGCACACCAGGGCGGGGUAGGACCCCAGCCCCUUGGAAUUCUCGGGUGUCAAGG | 0.598 |
| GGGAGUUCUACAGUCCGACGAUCCUCAAGUCCUGUGCUACACAUCGUAUGUACCGAAUCGGUGGAAAAAAAGGUGGAAAGUAUUAUGUUACGCCGUUCGGAUCUGCACUUCCAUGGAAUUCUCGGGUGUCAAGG | 0.39 |
| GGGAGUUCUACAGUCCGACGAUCUUUUGAGGAAAGGAUGAAGGAGCUCAGAGAAGAGGUAAGGGUCUCCUAUCCUUCCCCUCUCCCCCAGAUUUGAGUUUUAUGUUAUGAAUCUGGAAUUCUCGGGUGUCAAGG | -0.394 |
| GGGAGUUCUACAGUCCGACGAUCUAAGGAUUCUAUCUGCUUACUGCUACAGACCUAUGUGUUAAGGAAUUCUUCUCCUCCUCCUUGCGUAGAAGUUGAUCAGCACUGUGGUCAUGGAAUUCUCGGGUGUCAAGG | -0.495 |
| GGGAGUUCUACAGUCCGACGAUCCACAGACAACACGCACCCACACAGACACAGAGGGAAGGGGUUGGGAUGGGGACAGGGUGCACAGCCGGGCGGGGUAGGACCCCAGCCCCUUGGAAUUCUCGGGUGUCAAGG | -1.45 |
| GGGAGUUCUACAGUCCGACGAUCGUCCUGUGCUACACAUCGUAUGUACCGAAUCGGGGUUUUUGGGGAAAAAGGGGAGGGGAAAGUAUUAUGUUACGCCGUUCGGAUCUGCACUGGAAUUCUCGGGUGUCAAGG | -0.395 |
| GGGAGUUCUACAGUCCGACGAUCUCAAGUCCUGUGCUACACAUCGUAUGUACCGAAUCGGGAAAGGGAGGGUUUGGGAAAGUAUUAUGUUACGCCGUUCGGAUCUGCACUUCCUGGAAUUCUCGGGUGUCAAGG | -0.734 |

Set 4
Target: RING finger protein unkempt homolog, zinc fingers 1-6, GST-SBP tag (UNK, Homo sapiens, UniProt Q9C0B0, residues 30-357)
Method: RNA Bind-n-Seq
Molecule type: RNA
Sample: in vitro
Concentration: not given
Setting: RNA with constant flanks, human and mouse sites, ends assumed
Baseline: input RNA pool
Reading: higher = stronger binding
Target sequence (chain): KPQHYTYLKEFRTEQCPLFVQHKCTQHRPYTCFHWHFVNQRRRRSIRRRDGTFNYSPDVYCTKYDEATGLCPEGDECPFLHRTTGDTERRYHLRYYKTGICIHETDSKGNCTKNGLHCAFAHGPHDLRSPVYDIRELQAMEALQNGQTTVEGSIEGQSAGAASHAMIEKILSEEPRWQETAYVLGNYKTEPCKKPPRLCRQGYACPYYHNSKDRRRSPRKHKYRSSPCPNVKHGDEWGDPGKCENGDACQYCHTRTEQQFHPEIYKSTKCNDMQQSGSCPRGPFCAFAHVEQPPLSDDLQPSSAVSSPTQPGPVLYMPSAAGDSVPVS
| Sequence | bound/input enrichment [ratio] |
| --- | --- |
| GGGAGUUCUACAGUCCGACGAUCAAGUCAGUGUCUAUGCUCUCAAGGACACACUGACAAGCAGACCAGCCCAGGGAGUCAUCACUACUCUGGAGAAUGUUAGCCCUCCAAGAAGGGCCCGUGUGACGGACGCUACAGAGACCACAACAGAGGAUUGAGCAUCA | 0.166 |
| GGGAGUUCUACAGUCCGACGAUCGAACCACUUGAAGAAAAUUGCGCUAAAGCCCUGACUUUAAGGAUACAUGAUUCUUUGAAUAAUAGCCUUCCAAUUGGCCUUGUGCCUACUAAUUCAACAAACACUGUCAUGGACCAAAAACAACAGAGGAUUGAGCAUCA | 0.292 |
| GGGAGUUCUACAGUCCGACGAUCACCUGAGAGACACCCUCCUCUAGAAUUUAGUGGCGGGUCUGGGCUGGCAGAGGUAGGGGGCUGCUUUGGGCUUUGCACCUGCACUUUGGUGACAUUGUUCUUCUGUGUUCCCUUUAUUUACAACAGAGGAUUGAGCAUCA | 2.49 |
| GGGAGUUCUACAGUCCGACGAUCAAACCCCAGGCUGUUUCUUCAUUAAGUUCUAGUCAUUCCAGGUCUCAUGGGAAUGAUCACCAUAGCAAGGAACAUCAGCGCUCCAAAUCACCUCGGGACCCUGAUGCCAACUGGGAUUCUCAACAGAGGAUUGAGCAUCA | 0.166 |
| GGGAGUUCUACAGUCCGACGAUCUGGGGUGGGGUGGGGUGGGGGUGGGGGCCUUCCCUCUGCUUGCUCUGCAGAUGAGGGGAUAGCCUUCUCUAUCCUUUGCAGCUCUGACAAUUGCCCCGGACCUGCCCAUGCCGGCAUACCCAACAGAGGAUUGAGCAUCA | 2.22 |
| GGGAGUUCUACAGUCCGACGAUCGCUUUCCCUGCCUUCCUGGGCACUGAGGCCUCCAGCUCAGGCAAUGGCUCCUGGCUGGAGCUGAUGCCCCUGACUGCUGUGAGCGUGCACCUGCUGACAGGUAAUGGGACAGAGGUGCCGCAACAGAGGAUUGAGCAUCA | 0.0944 |
| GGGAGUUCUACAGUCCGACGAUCCCCUGCAUUAGUUGCUCAUAAAUCAGCCUUACGAUGGGCCGGACUGUGAUAGUACUUGGCGGAGGUAUCAGUGGAUUGGCCGCAAGUUAUCAUCUGAUCCGAGGCCCCAGUCCUCCUAAGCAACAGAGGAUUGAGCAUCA | 0.144 |
| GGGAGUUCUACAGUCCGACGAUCCAAAAGAAGAACAAGAUCCAUACUUUGGAGGACUUCCAGCGGGUUAUCAAUGUGAAUCUUAUAGGCACUUUCAAUGUGAUCCGCCUGGUUGCUGGGGAGAUGGGCCAGAAUGAACCAGACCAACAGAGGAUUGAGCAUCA | 0.313 |
